Results of several laboratories.
Every numbered part comes from another study and shows a few of its results, in no order.

Sample 1
Target: Interferon regulatory factor 5, full length, phosphomimetic (IRF5, Homo sapiens, UniProt Q13568-2, residues 1-514, K96S/S451D/S453D/S456D/S462D)
Technique: protein-binding microarray
Molecule type: double-stranded DNA, one strand shown
Matrix: in vitro
Concentration: 250 nM
Notes: 60-bp whole probe
Together with: salmon DNA 0.4 mg/ml
Reference: random background probes
Reading: higher = stronger binding
All sequences stand within: GCCTAGCAC … GTCTTGATTCGCTTGACGCTGCTG
The log fluorescence of `GACGGACTGCTTATCCTGAGGTGCTAG` is reported as -0.281 z-score.
`TTAGGTATCGACTATCGATTAGTGCTA` gave a log fluorescence of 7.34 z-score.
`GACCAACTGAGTCTCGAGACGTGCTAG` gave a log fluorescence of -0.226 z-score.
For `GACGGTTTCGACACTGGGGAGGTGCTA`, the log fluorescence was 4.64 z-score.
`TTAGGACTCGGTATCGGTTAGTGCTAG` gave a log fluorescence of 4.75 z-score.
The log fluorescence of `GACGATTTCAGTACCGAGACGTGCTAG` is reported as 1.22 z-score.
For `TGTTGTCTGTGTTTCCTTGTGTGCTAG`, the log fluorescence was 0.518 z-score.
With `TCATCTTTTATTTTTTTACTGTGCTAG` the log fluorescence was 1.26 z-score.
The log fluorescence of `GACGGTATCGACATTCGGGACGTGCTA` is reported as 2.17 z-score.
With `TGTGGTCTGTTTCTGATATGGTGCTAG` the log fluorescence was 0.682 z-score.
For `TTAGGACGGGGTTTCGGTTAGTGCTAG`, the log fluorescence was 6.9 z-score.
`TCAGCTTTCCAATTCTCACTGTGCTAG` gave a log fluorescence of 0.692 z-score.
The log fluorescence of `TAATTTTTACTTTCTGAATGGTGCTAG` is reported as 4.2 z-score.
`GAAGATTTCAATTAGAAAAAGTGCTAG` has a log fluorescence of 1.12 z-score.
With `TTAGGTACCGACTATCGGTTAGTGCTA` the log fluorescence was 6.4 z-score.
For `AGTGGAGTTCATTGTCATTTGTGCTAG`, the log fluorescence was 0.337 z-score.
The log fluorescence of `TTAGGTTTCGGGTATCGGTGAGTGCTA` is reported as 9.61 z-score.
With `GACGGTCTCGGTTTCGGGACGTGCTAG` the log fluorescence was 3.24 z-score.
`TTAGGTATCGATATCGGTTAGTGCTAG` gave a log fluorescence of 8.93 z-score.
With `GACGGTATCGGTTTCGAGACGTGCTAG` the log fluorescence was 8.42 z-score.
For `GACGACATCGGGTTTCGAGACGTGCTA`, the log fluorescence was 1.63 z-score.
`CCATTCTTGGGACTCACCTGGTGCTAG` gave a log fluorescence of -0.356 z-score.
The log fluorescence of `GACGATCTAAGACTGGAGACGTGCTAG` is reported as -0.139 z-score.
`TTAGATTTCAGTTCCGATTGGTGCTAG` gave a log fluorescence of 2.56 z-score.
With `TCAACACTCACCATGGCACTGTGCTAG` the log fluorescence was -0.0175 z-score.

Sample 2
Target: Histone acetyltransferase KAT6A, both winged helices, GST fusion (KAT6A, Homo sapiens, UniProt Q92794, residues 1-181)
Technique: protein binding microarray
Molecule type: double-stranded DNA, one strand shown
Matrix: in vitro
Concentration: not given
Notes: 8-mer, flanks averaged, mean of 2 arrays, mostly near background
Reference: not given
Reading: higher = stronger binding
Residues (chain): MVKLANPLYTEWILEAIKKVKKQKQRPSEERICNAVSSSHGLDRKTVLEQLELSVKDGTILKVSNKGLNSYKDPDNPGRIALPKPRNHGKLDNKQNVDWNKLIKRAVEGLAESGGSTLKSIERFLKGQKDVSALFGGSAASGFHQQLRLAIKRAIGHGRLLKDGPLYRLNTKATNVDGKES
`GTTAAAAC` gave an E-score of 0.134.
With `ACCATTAT` the E-score was -0.0373.
`ATTGATGG` gave an E-score of -0.172.
For `AGGGTTAT`, the E-score was -0.173.
`AACCTGCA` gave an E-score of -0.189.
The E-score of `ATTTGGCG` is reported as 0.00352.
For `ACCATACG`, the E-score was 0.105.
`CCACGTGA` gave an E-score of -0.078.
With `ATACCATC` the E-score was -0.0599.
The E-score of `ACCCCTGC` is reported as -0.238.
For `ATTCCTTG`, the E-score was -0.0267.
With `ACTGCATG` the E-score was -0.0779.
`CTGACTCA` has an E-score of -0.136.
With `GAGATATA` the E-score was -0.0701.
The E-score of `AGTCCTAC` is reported as 0.102.
`ATGGACAT` gave an E-score of -0.101.
`TACAAAGA` has an E-score of -0.0526.
`TGCCCCAA` gave an E-score of -0.241.
The E-score of `GGGGGTGA` is reported as -0.0656.
The E-score of `AAGGGTTC` is reported as -0.139.
For `CTGATACC`, the E-score was -0.0319.
With `GAGCGTCA` the E-score was 0.0717.
`ATAGTGAT` gave an E-score of -0.0166.
`TCGTGACA` has an E-score of -0.0136.
With `GCCGCATA` the E-score was 0.255.

Sample 3
Target: Sal-like protein 4, full length isoform A (SALL4, Homo sapiens, UniProt Q9UJQ4, residues 1-1053)
Sequence of UniProt Q9UJQ4 (whole entry, looked up): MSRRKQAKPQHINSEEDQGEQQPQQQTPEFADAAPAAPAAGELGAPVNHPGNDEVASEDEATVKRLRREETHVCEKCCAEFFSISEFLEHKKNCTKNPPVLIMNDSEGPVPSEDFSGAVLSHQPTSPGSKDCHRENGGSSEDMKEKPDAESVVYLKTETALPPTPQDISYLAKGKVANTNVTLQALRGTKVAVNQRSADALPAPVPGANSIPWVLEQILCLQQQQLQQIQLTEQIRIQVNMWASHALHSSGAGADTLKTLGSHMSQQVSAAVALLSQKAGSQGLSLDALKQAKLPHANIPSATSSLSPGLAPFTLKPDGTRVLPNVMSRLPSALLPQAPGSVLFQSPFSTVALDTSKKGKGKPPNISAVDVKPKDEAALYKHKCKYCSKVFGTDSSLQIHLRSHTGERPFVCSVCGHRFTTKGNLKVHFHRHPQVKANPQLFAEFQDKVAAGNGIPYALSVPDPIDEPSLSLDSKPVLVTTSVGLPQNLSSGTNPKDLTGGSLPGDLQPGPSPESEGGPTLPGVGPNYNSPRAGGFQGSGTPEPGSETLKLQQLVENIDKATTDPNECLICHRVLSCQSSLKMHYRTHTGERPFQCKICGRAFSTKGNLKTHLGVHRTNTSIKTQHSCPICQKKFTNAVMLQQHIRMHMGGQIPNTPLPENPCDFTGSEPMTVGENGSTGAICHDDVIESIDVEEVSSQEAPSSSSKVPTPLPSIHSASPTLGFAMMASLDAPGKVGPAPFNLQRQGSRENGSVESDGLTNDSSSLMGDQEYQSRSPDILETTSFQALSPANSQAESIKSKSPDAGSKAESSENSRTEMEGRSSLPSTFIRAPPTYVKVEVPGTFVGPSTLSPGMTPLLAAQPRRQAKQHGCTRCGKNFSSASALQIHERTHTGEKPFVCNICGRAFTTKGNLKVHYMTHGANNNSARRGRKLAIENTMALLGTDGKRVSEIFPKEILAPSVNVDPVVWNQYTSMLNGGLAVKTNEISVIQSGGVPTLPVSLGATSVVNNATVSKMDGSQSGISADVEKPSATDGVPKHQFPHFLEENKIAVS
Technique: universal PBM
Molecule type: double-stranded DNA, one strand shown
Matrix: in vitro
Concentration: 600 nM
Notes: 8-mer, flanks averaged, mean of replicates
Reading: higher = stronger binding
`TACCGTGA` has an E-score of -0.0739.
With `ACGGTAAC` the E-score was -0.0073.
The E-score of `CAGCCACC` is reported as -0.22.
For `CACACGAG`, the E-score was -0.257.
With `CGTTGACA` the E-score was -0.124.
The E-score of `GACACGAC` is reported as -0.00788.
For `AAACTTGG`, the E-score was 0.046.
`CCTCACCG` has an E-score of -0.335.
The E-score of `CTCAGCAC` is reported as -0.159.
The E-score of `CCTGAACG` is reported as -0.1.
With `AGCGCTAA` the E-score was 0.0124.
`GCAATCCC` has an E-score of -0.237.
With `AACATTTA` the E-score was 0.288.
`CCTATAGG` has an E-score of -0.105.
For `ATTGCGCA`, the E-score was -0.0267.
With `CCCCCTTA` the E-score was -0.187.
For `GACTCAAA`, the E-score was 0.042.
`GTAACGCA` gave an E-score of 0.0689.
With `CTCCCATA` the E-score was 0.0661.
For `GATCTTGA`, the E-score was 0.131.
For `CTCTCCAC`, the E-score was -0.0578.
For `CCAGGGAC`, the E-score was -0.347.
`AGTCATTA` has an E-score of 0.153.
`ACACTCTA` gave an E-score of 0.0613.
`GTACAACA` gave an E-score of 0.191.

Sample 4
Target: RNA binding protein fox-1 homolog 2, RRM domain, GST-SBP tag (RBFOX2, Homo sapiens, UniProt O43251-10, residues 100-194)
Technique: RNA Bind-n-Seq
Molecule type: RNA
Matrix: in vitro
Concentration: 365 nM
Notes: natural RNA segment, single round, ends assumed
Reference: no-protein control
Reading: higher = stronger binding
Construct (chain): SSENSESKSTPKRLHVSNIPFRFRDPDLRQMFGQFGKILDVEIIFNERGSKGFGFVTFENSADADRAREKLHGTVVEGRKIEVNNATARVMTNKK
`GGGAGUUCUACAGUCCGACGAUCUGGGACAAACCCUGGACAGCCAUGCCAGAGAGAGGCCUUUGACCGGCCCCAGAGCUAAAAGCACCAGAGAAAAUCAAAUGCUUCCUACUCAGCGUGACCCAACUUUUCUAUGGAAUUCUCGGGUGCCAA`: “RBNS enrichment (R)” 0.239.
Under “RBNS enrichment (R)”, `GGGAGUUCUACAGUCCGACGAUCACUGUAGCACAUCUCUGGGCGUUUCCCUACCCAGAGAAGAGCCCCCCCCUUUGAUACAAAUCGGUUGGAUUUUCAUAUGCUUCAAAGGCUUGAUCUGUGAGUCACUCUCCUGGAAUUCUCGGGUGCCAA` is recorded as 0.527.
`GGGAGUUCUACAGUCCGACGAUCGAACUCUUUUUCUCCCUUGUACUUUUUUUUGACCUGGCAUCUUUUUAUAGGGAAAAAUGGCCUUUGUAGGCAGUGGAAAACUUGCAAGGAAAGCUGCCGUCUCUUUGGCAUGGAAUUCUCGGGUGCCAA` — result for “RBNS enrichment (R)”: 1.3.
For `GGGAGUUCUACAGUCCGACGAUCAUCAAAUGAAACAUGAAAAAAACAGUGACUUUUAAGGUGAAAAGAGUUUCAAGCAUUCCAAAUAAAUUAUCAAUGUUUCAUAACUUUUUAUUAUAAACCCACCUCCUAAUUGGAAUUCUCGGGUGCCAA`, “RBNS enrichment (R)” read 1.28.
`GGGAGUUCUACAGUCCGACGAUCGCUCUGGUGUGAGUCACUUACCUAGCUUAUGUCAGGCCCCUAAAAGUAAUGCAUAAACUGUCAGAAUCGGGACCUUAUCGUUGAGGUGAAAAGAACCAAGGCCCGUAGGAUGGAAUUCUCGGGUGCCAA` — result for “RBNS enrichment (R)”: 0.352.
`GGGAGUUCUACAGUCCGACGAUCUGGAACCUUGAGGCUAGUUAGUAUCACACUCAGGCCACACUCAGCACUUGCCCACUCUUGUUUACUGCCUUGUAUUCUAGUUAUUUGUGUAUUUGUCUCCCUCACUAGAUUGGAAUUCUCGGGUGCCAA`: “RBNS enrichment (R)” 0.948.
`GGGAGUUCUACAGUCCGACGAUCCUCAAACCUGAAAGCAGAAAUUUUUAGUAGUUGAGUUGCUUUAAGUGAAUUUUAACAAAUAUGACACAGAAAAGGUCAGAUGCUGUUGUAUAAAAUUUUUUACUAGUGUGUGGAAUUCUCGGGUGCCAA`: “RBNS enrichment (R)” 0.526.
For `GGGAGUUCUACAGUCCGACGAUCGCAGUUAUCCGUCUUGGCAGGAGGGGUUCUGGGGUUCGGGCUGGAUAGCAGAGGAGAGGGAUGAGCCCUGCGUUUAUUUCCCUUCUGCUCGUCCUUUUCCAGGACACAAUUGGAAUUCUCGGGUGCCAA`, “RBNS enrichment (R)” read 0.21.
For `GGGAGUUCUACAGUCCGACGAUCUGAGAAGUUUUCCGGUAGAGUUGGAAAUCAGUUGUGAAUACAUUCUUUGCUAGUUGGAGUGCUUGUUUACUAAGCAUGUGCCGUCGUAGGUAUUAGUGCUAGUCUCAGAUUGGAAUUCUCGGGUGCCAA`, “RBNS enrichment (R)” read 2.68.
`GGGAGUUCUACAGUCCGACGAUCUAUUUAGGGACCAAAGGACCAAACUUUUUAUUGCAGAUGUGUAGCUCUGUCAAUUAGAGGUGGAAUGGAGACCAACCUCCUUCCUGCCUCCUGGCUGUUCUUGAAACAGCUGGAAUUCUCGGGUGCCAA` — result for “RBNS enrichment (R)”: 0.374.
`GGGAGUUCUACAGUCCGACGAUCCCACCUCUAGAUACCUUCAGGCAACACAGCCCAGUUUUAACCUCUAGUAUCCAUGACCAAACUAUCCCUGACACAUGAGGACAGGGGCCUCUUCUGGCUGUCAGGAGCAAUGGAAUUCUCGGGUGCCAA` — result for “RBNS enrichment (R)”: 0.668.
For `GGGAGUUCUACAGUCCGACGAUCCUGGUGUGGUGUAGACACGGCUUCUUUUGGCAUAUUCUAGAUCAGACAGUGUCACUGACAAACAAGAGGGACCUGCUGGCCAGCCUUUGUUGUGCCCAAAGAUCCAGACAUGGAAUUCUCGGGUGCCAA`, “RBNS enrichment (R)” read 0.201.

Repeated from above (sample 1):
The log fluorescence of `GACGATTTCAGTACCGAGACGTGCTAG` is reported as 1.22 z-score.
The log fluorescence of `TAATTTTTACTTTCTGAATGGTGCTAG` is reported as 4.2 z-score.
With `TTAGGTACCGACTATCGGTTAGTGCTA` the log fluorescence was 6.4 z-score.
`TTAGATTTCAGTTCCGATTGGTGCTAG` gave a log fluorescence of 2.56 z-score.
`CCATTCTTGGGACTCACCTGGTGCTAG` gave a log fluorescence of -0.356 z-score.
`TTAGGACTCGGTATCGGTTAGTGCTAG` gave a log fluorescence of 4.75 z-score.
With `TCATCTTTTATTTTTTTACTGTGCTAG` the log fluorescence was 1.26 z-score.
`TCAGCTTTCCAATTCTCACTGTGCTAG` gave a log fluorescence of 0.692 z-score.
